Measured values pooled from the literature.
Numbered parts are unrelated; each lists some results of a single study.

Study 1
Target: Histone acetyltransferase KAT6A, winged helix 1, GST fusion (KAT6A, Homo sapiens, UniProt Q92794, residues 1-85)
Technique: protein binding microarray
Form: double-stranded DNA, one strand shown
Medium: in vitro
Concentration: not given
Setting: 8-mer, flanks averaged, mean of 2 arrays, mostly near background
Relative to: not given
Reading: higher = stronger binding
Construct (chain): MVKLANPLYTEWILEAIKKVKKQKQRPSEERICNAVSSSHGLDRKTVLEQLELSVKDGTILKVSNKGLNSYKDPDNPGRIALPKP
`CACGAATC` has an E-score of -0.0622.
`CAGATCGA` has an E-score of -0.22.
For `GGTCCGTA`, the E-score was 0.239.
With `AAGCGTCG` the E-score was 0.303.
For `ATGGGTAA`, the E-score was -0.0492.
With `CAATAATC` the E-score was 0.00111.
`AAAACTTG` gave an E-score of -0.153.
The E-score of `AATATGTG` is reported as -0.131.

Study 2
Target: RING finger protein unkempt homolog, zinc fingers 1-6, GST-SBP tag (UNK, Homo sapiens, UniProt Q9C0B0, residues 30-357)
UniProt Q9C0B0, sequence (30-357, looked up): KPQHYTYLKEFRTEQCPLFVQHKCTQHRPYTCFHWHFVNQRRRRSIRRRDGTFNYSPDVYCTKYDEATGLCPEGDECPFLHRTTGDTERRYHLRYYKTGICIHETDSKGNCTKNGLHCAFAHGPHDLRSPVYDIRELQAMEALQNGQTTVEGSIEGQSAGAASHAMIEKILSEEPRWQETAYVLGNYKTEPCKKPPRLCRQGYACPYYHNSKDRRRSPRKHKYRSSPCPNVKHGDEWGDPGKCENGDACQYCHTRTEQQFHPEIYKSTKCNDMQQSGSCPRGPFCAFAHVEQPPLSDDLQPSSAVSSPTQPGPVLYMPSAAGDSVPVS
Technique: RNA Bind-n-Seq
Form: RNA
Medium: in vitro
Concentration: not given
Setting: RNA with constant flanks, ends assumed
Relative to: input RNA pool
Reading: higher = stronger binding
For `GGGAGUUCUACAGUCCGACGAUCUCUGUUCGAAGAUUGGACCCAGAAUACUGGAAGACUAUACUGAGUUGUAUAUAUGUUUUUACCGUAUUUGGAUUUACAUCUUUCAUUAUGGUUAUAGUCCAUGAGCGAGUGCCUGACAUGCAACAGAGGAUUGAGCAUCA`, the bound/input enrichment was 0.193 ratio.
The bound/input enrichment of `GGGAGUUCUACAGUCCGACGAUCAUUGUCCCCUGGUGAGGGGAGCAGGGGAGAGAAAAUGGUAGCCAUUUUUACAUUGUUUUGUACCGUAUUUAUUGAUUCAGGAAACAAACACAAAAUUCUGAAUAAAAUUACUUGGAAACUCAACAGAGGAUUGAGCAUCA` is reported as 0.543 ratio.
`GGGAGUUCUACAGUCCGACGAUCACCUUUUCAUUUUUAUUUUUUCUUUUCUCAACCAUUACGGUUUAUCUUUUUUUAAUGCAGACCGUUAAAAUUUCACUGCCAGGUUUCUUCUGCCCACCCAAAAGAUCCAGUCUAUAAUUACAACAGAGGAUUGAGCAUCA` gave a bound/input enrichment of 2.55 ratio.
The bound/input enrichment of `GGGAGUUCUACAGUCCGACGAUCUUACAUCUCAAUGAAGCAAGGGACUAUGAAGUGUCAGAUAGUGCCCCUCAUCUUGAGGGCCCCGCAGAAUUUCAAGAGAAUGUAAGGAAGACCAACAAUUUUUCAGCUUUUCUUGCCAAUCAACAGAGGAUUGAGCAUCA` is reported as 0.163 ratio.
For `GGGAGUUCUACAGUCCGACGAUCAUUAAGCUUUAUGAAAACUUCAUCAGUGAGUUUGAGCACAGGGUAAACCCUCUGUCCCUGGCCGAAAUAAUUCUCCAUGUGGUUAGACAGAUGACCGAUCCUAAUGUGGCUCUUACUUUUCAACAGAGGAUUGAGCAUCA`, the bound/input enrichment was 0.281 ratio.
`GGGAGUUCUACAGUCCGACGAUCGUCUCAUCUGUAUGCAUCUUAUGCAUGUGAUUCAAUAGACUAGAUCGAUUCUGUGUGGUUUAUCACCGUAGAUACACAAACCAGUCUUUAUUUUUUACUUAAGAAAAUAUAUAAGUGGAACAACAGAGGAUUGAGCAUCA` has a bound/input enrichment of 0.37 ratio.
`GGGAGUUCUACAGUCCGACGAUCGACAGCGGAGAAGAGGUGGAUUUGGUUAAGGAAGCAGAUGUUCCCUCAGCUAUUAGCCUUCUCCGAUUUUUUCUUCAAGAACUUCCUGAACCUGUUAUCCCUGGCAGUUUACAUAUUCACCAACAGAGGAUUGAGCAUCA` has a bound/input enrichment of 0.159 ratio.
`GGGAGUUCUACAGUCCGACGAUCCCAUAAGUACAGUUGAUCAAAGUCAUAGUAGGUAAAUGCUUUAUGGGACAGCUGACACCUUUCCGACCCUACCAGGUAUUGCUAGCAUGUGAGCUGCAGUUGUGGGGUCUGAGAUAUUUCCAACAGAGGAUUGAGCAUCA` gave a bound/input enrichment of 0.196 ratio.

Study 3
Target: Replicase polyprotein 1ab, main protease (rep, Severe acute respiratory syndrome coronavirus 2, UniProt P0DTD1)
Observed: enzyme activity
Action: inhibitor
Concentration: 20 µM
Setting: primary screen
The inhibition of O=C(O)/C=C/c1ccc(O)c(O)c1 is reported as 29.4%.
With NC(Cc1cc(O)c(O)cc1O)C(=O)O (centres unmarked) the inhibition was 62.8%.
The inhibition of O=c1c2ccccc2sn1-c1ccccc1 is reported as 100%.

Study 4
Cell line: HEK-293T
Observed: pseudovirus infection
Organism: VSV pseudotyped with SARS-CoV-2 spike
Concentration: 10 µM
Time: 16 h
Relative to: vehicle-treated
The GFP-positive cells of C[Se]CC[C@H](N)C(=O)O is reported as 78.6%.
CC(C)n1c(/C=C/C(O)CC(O)CC(=O)O)c(-c2ccc(F)cc2)c2ccccc21 (centres unmarked) gave a GFP-positive cells of 111%.
Cc1c(-c2ccc(O)cc2)n(Cc2ccc(OCCN3CCCCCC3)cc2)c2ccc(O)cc12 gave a GFP-positive cells of 12.3%.
With Nc1nc(CC(=O)Nc2ccc(CCNC[C@H](O)c3ccccc3)cc2)cs1 the GFP-positive cells was 81.2%.

Study 5
Target: Interferon regulatory factor 7, full length, phosphomimetic (IRF7, Homo sapiens, UniProt Q92985, residues 1-503, S471D/S472D/S475D/S476D/S477D/S483D/S484D/S487D)
Technique: protein-binding microarray
Form: double-stranded DNA, one strand shown
Medium: in vitro
Concentration: 2200 nM top
Setting: 60-bp whole probe
Added: salmon DNA 0.4 mg/ml
Relative to: random background probes
Reading: higher = stronger binding
Constant ends, left off below: GCCTAGCAC … GTCTTGATTCGCTTGACGCTGCTG
Residues (chain): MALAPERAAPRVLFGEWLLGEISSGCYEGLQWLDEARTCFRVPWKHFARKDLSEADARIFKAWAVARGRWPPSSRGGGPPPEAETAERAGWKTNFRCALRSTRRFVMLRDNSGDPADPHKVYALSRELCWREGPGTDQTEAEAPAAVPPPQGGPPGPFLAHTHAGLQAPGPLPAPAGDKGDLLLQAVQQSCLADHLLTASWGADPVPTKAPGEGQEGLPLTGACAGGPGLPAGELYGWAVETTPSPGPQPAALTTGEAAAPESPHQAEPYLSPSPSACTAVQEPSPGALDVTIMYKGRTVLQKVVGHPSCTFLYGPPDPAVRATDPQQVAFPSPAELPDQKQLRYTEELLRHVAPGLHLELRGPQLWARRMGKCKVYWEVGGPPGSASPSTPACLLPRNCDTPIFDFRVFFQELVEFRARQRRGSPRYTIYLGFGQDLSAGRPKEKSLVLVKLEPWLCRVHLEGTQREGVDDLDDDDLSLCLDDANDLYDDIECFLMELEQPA
`TGAGGACTGCTTTTCCTTTAGTGCTAG`: “fitted relative affinity” 1.24 z-score.
Under “fitted relative affinity”, `TCCCCTCTCTTTCCAACTCTGTGCTAG` is recorded as 2.46 z-score.
Under “fitted relative affinity”, `TCATGTGTAGGTCTTAAACTGTGCTAG` is recorded as -0.0683 z-score.
`TTACATATCGGGACTGGATTAGTGCTA` — result for “fitted relative affinity”: 0.521 z-score.
Under “fitted relative affinity”, `ACTAGTTTTCATTTTCTGAAGTGCTAG` is recorded as 5.07 z-score.
`TTAGTTTTCGACTATCGGTTAGTGCTA` — result for “fitted relative affinity”: 4.08 z-score.
`TCAAGTTTTCCTATGTCACTGTGCTAG` — result for “fitted relative affinity”: 1.81 z-score.
`TTAGGTATCCTTCTCGTTTAGTGCTAG`: “fitted relative affinity” 1.27 z-score.

Study 6
Target: Replicase polyprotein 1ab, polymerase (rep, Severe acute respiratory syndrome coronavirus 2, UniProt P0DTD1)
Observed: enzyme activity
Action: inhibitor
Concentration: 20 µM
c1cc2c(cc1C1CCCCC1)c1c3n2CCNC3CCC1 (centres unmarked) has an inhibition of -0.55%.
O=C(/C=C/c1c(C(=O)O)[nH]c2cc(Cl)cc(Cl)c12)Nc1ccccc1 gave an inhibition of 30.1%.
The inhibition of C[C@]12CC[C@H]3C(=CCc4cc(O)ccc43)[C@@H]1CCC2=O is reported as -1.76%.
The inhibition of O=C(O)c1ccc(NC(=O)[C@H](Cc2ccc(O)cc2)NC(=O)c2ccccc2)cc1 is reported as 1%.
CCOC(=O)c1ccc(-c2ccc(OC(=O)N(C)Cc3cccc(-c4ccncc4)c3)cc2)cc1 has an inhibition of 1.09%.
With CN(C)CCc1c[nH]c2ccc(Cn3cncn3)cc12 the inhibition was 0.49%.
For CC(=O)Oc1cccc(C(=O)O)c1OC(C)=O, the inhibition was -7.31%.
With Cc1cc2nc3ccc(N(C)C)cc3[s+]c2cc1N the inhibition was 102%.
COc1cc2nc(C3CC3)nc(N3CCN(c4ccccc4OC)CC3)c2cc1OC has an inhibition of 3.17%.
The inhibition of Cc1c(-c2ccnn2C)cc(C(=O)NCc2ccc(S(C)(=O)=O)cn2)c(=O)n1-c1cccc(C(F)(F)F)c1 is reported as -3.28%.
For COc1cccc(-c2c(C)n(Cc3c(F)cccc3C(F)(F)F)c(=O)n(C[C@H](NCCCC(=O)O)c3ccccc3)c2=O)c1F, the inhibition was 2.15%.
For Cc1ccc(S(=O)(=O)OCC(=O)Nc2ccc(C(=O)O)c(O)c2)cc1, the inhibition was 5.58%.
O=C(NCC1(N2CCN(c3ccccc3)CC2)CCOCC1)c1cccnc1Sc1ccccc1 has an inhibition of 13.2%.
N[C@@H](C(=O)O)c1ccc(C(=O)O)c(O)c1 (racemic) has an inhibition of 2.88%.
COC(=O)C1=C(C)NC(C)=C(C(=O)OCCSc2ccccc2)C1C (centres unmarked) gave an inhibition of -6.28%.
With N[C@H](C(=O)O)[C@H](O)c1ccc(O)c(O)c1 the inhibition was 0.36%.
The inhibition of O=C(O)CN(CCN(CC(=O)O)CC(=O)O)CCN(CC(=O)O)CC(=O)O is reported as -3.71%.
With CCC(=O)N1CCN(c2ccc(-n3c(=O)ccc4cnc5ccc(-c6cnc7ccccc7c6)cc5c43)cc2C(F)(F)F)CC1 the inhibition was 1.81%.
With O=C1CCCC(=O)C1C(=O)c1ccc(C(F)(F)F)cc1[N+](=O)[O-] the inhibition was 1.1%.
The inhibition of CN(C)[C@@H]1C(O)=C(C(N)=O)C(=O)[C@@]2(O)C(O)=C3C(=O)c4c(O)ccc(Cl)c4[C@@H](O)[C@H]3C[C@@H]12 is reported as 25.4%.
COc1ccccc1OCC(O)CO (centres unmarked) has an inhibition of 9.67%.
For NC(=O)NCCC[C@H](N)C(=O)O, the inhibition was -2.56%.
With C/C(=C\c1ccc(C(=O)O)cc1)c1ccc2c(c1)C(C)(C)CCC2(C)C the inhibition was -2.05%.
CCCCCCCCCCCC(=O)OCC(O)CO (centres unmarked) has an inhibition of -11.7%.
CCOC(=O)[C@H](CCc1ccccc1)N[C@@H](C)C(=O)N1[C@H](C(=O)O)C[C@H]2CCCC[C@@H]21 gave an inhibition of -3.5%.
